Experimental data of several laboratories.
Lines come from different studies, so protocols differ. Values joined by “and” are separate records of one study, mostly repeats; a detail may differ. ± gives the spread as reported.
CYP2C19: Cytochrome P450 2C19 (CYP2C19, Homo sapiens, UniProt P33261)
Sequence of UniProt P33261 (whole entry, looked up): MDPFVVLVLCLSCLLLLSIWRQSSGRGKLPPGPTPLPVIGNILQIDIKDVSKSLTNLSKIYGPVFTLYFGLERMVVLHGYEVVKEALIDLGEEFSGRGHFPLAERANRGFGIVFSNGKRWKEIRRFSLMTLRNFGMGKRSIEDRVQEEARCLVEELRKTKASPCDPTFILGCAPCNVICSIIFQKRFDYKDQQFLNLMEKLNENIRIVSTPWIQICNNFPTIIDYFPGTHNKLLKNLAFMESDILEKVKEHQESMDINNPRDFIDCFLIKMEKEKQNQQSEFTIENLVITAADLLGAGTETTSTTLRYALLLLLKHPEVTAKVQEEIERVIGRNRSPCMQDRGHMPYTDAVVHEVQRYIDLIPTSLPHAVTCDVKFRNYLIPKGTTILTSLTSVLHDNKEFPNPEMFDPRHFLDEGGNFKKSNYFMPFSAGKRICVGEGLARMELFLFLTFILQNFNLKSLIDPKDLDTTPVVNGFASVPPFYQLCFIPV
Sequence of UniProt P08684 (whole entry, looked up): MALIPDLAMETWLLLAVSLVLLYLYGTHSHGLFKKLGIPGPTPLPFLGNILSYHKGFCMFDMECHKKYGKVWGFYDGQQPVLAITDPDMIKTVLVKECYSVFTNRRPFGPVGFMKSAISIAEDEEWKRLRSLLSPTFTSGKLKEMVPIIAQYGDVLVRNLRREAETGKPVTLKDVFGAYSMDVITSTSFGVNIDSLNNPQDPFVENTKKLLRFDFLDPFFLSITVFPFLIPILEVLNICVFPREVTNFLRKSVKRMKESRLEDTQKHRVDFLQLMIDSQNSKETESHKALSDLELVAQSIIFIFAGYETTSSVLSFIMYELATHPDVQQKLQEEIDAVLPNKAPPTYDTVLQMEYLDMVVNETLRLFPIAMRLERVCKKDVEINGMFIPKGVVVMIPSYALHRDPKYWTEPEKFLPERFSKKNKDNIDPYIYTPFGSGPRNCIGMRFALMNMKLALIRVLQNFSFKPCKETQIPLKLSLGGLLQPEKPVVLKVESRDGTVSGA
Sequence of UniProt O15245 (whole entry, looked up): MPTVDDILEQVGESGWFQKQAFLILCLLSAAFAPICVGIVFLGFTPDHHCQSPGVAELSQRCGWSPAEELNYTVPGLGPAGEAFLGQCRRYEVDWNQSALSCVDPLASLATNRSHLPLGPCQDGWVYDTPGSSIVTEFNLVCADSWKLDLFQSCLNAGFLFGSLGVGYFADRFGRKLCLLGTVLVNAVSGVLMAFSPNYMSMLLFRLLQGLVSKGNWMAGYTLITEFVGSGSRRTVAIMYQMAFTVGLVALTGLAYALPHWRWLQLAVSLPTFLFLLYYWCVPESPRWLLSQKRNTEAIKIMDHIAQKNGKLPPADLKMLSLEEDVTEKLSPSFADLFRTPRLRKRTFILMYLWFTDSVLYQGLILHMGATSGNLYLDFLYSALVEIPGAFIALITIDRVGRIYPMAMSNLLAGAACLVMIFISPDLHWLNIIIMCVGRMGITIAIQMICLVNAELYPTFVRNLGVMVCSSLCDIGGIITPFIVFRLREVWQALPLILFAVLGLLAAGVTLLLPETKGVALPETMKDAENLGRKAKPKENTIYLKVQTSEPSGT
Sequence of UniProt P05177 (whole entry, looked up): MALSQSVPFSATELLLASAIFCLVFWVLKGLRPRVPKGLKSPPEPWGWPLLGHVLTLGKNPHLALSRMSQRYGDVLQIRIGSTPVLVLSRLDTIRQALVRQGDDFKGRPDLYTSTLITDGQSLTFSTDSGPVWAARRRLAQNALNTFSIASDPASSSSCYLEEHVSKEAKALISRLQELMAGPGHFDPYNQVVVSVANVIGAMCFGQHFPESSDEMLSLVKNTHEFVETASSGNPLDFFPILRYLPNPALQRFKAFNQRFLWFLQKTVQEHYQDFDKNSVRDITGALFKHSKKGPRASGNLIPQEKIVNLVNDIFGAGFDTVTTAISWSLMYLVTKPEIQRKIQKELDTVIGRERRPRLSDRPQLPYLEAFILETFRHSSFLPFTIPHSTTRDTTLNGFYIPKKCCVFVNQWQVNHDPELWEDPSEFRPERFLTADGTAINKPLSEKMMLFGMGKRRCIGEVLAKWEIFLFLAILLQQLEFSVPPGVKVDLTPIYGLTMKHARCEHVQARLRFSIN

Under “half-life geometric mean”, `CC[C@H]1[C@@H](O)[C@@H]2[C@H](CC[C@]3(C)[C@@H]([C@H](C)CCNC(=O)NS(=O)(=O)c4ccc(C(C)(C)C)cc4)CC[C@@H]23)[C@@]2(C)CC[C@@H](O)C[C@@H]12` is recorded as 10.8 h (Cytochrome P450 3A4 (CYP3A4, Homo sapiens, UniProt P08684); human, plasma; dose not given, compound alone).
`C[C@]12CC[C@@H]3c4ccc(O)cc4C[C@@H](CCCCCCCCC[S+]([O-])CCCC(F)(F)C(F)(F)F)[C@H]3[C@@H]1CC[C@@H]2O` (stereo partly drawn) gave a viability of 95.6% and 93.1% and 97.9% (LCC2 tamoxifen-resistant; CCK-8; 20 nM; baseline: untreated).
For `Cc1noc(C)c1Cn1cc(N2C(=O)CN(Cc3cccc(O)c3)C2=O)cn1`, “aberrant cells with gaps” read 0.5% (human blood lymphocytes; 296.6 µg/mL, 3 h, with 2% S9).
`NC(=O)C[C@H](N)C(=O)O` gave an uptake half-time of 4.1 h (Bacillus subtilis; 168, S7 medium; 1 mM, equimolar amino acid mixture).
For `Cn1c(=O)c2c(ncn2C)n(C)c1=O`, the AUC(0-t) was 30600 ng·h/mL (Cytochrome P450 1A2 (CYP1A2, Homo sapiens, UniProt P05177); human, plasma; oral, 200 mg, day 1, alone, geometric mean).
For `N[C@@H](CCC(=O)O)C(=O)O`, “half-time of uptake” read 17.7 h (Bacillus subtilis; amino acid uptake; NCIB3610; together with: equimolar amino acid mixture 1 mM).
For `COc1cccc2c1C(=O)c1c(O)c3c(c(O)c1C2=O)C[C@@](O)(C(=O)CO)C[C@@H]3O[C@H]1C[C@H](N)[C@H](O)[C@H](C)O1`, the viability was 7.09% (BNL mouse liver cells; SRB; 100 µM, 10% fetal bovine serum).
For `Cc1cc(C(=O)NC(C)(C)COc2cccc3c2C(N)=NS(=O)(=O)N3)cc(C)n1`, the cytotoxicity was 4% (human peripheral blood lymphocytes; CBPI, concurrent micronucleus test; 100 µg/mL, 4 h, together with: rat liver S9; baseline: vehicle control).
For `CCc1cc(/C(C)=N/OCc2ccc(C3CCCCC3)c(C(F)(F)F)c2)ccc1CN1CC(C(=O)O)C1`, the maximal inhibition was 4.9% (Solute carrier family 22 member 1 (SLC22A1, Homo sapiens, UniProt O15245); inhibitor; HEK293 transfected with SLC22A1; up to 24.3 µM, 5 min, together with: MPP+ 0.025 µM).
Under “patients with blurred vision”, `Cc1cc(Nc2ccc(S(F)(F)(F)(F)F)cc2)n2nc(C(C)(F)F)nc2n1` is recorded as 0% (Plasmodium vivax; human Plasmodium vivax malaria patients; oral, 400 mg).
`C[C@H](CS)C(=O)N1CCC[C@H]1C(=O)O` gave a QTc interval of 339 ± 0.9 ms (male Hartley guinea pig, anaesthetized; intravenous, 10 mg/kg, baseline before infusion).
For `CC[C@@H](C)[C@@H](N)C(=O)OC[C@H]1O[C@@](C#N)(c2ccc3c(N)ncnn23)[C@H](O)[C@@H]1O`, the selectivity index was greater than 59.2 (human respiratory syncytial virus; viral replication, viral protein ELISA; HEp-2, A2; 5 days; baseline: CC50 over EC50).
`C[C@@H](O)[C@H](N)C(=O)O` gave an uptake half-time of 28.3 h (Bacillus subtilis; NCIB3610, MOPS medium; 1 mM, 1 mM equimolar amino acid mixture).
`O=C(CCCN1CCC(O)(c2ccc(Cl)cc2)CC1)c1ccc(F)cc1` gave a QTc interval of 348 ± 0.4 ms (male Hartley guinea pig, anaesthetized; intravenous infusion, 0.01 mg/kg, 10 min infusion, post-infusion).
With `CCC(CC)C(=O)Oc1cccc(C(O)CCN)c1.O=CO` (stereo not drawn) the compound remaining was 93.4% (porcine liver esterase; 99 µM, 5 min; baseline: time 0 min).
The selectivity index of `N#C[C@@]1(c2ccc3c(N)ncnn23)O[C@H](COC(=O)C2CCC(F)CC2)[C@@H](O)[C@H]1O` (stereo partly drawn) is reported as 111 (human respiratory syncytial virus; viral replication, viral protein ELISA; HEp-2, A2; 5 days; baseline: CC50 over EC50).
The compound remaining of `CCCC(CCC)C(=O)Oc1cccc(C(O)CCN)c1.O=CO` (stereo not drawn) is reported as 95.1% (porcine liver esterase; 99 µM, 15 min; baseline: time 0 min).
With `COc1cc(N)c(Cl)cc1C(=O)NC1CCN(CCCOc2ccc(F)cc2)CC1OC` (stereo not drawn) the QTc interval was 302 ± 0.3 ms (male Hartley guinea pig, anaesthetized; intravenous, 0.1 mg/kg, baseline before infusion).
`COc1ccc2[nH]c([S+]([O-])Cc3ncc(C)c(OC)c3C)nc2c1` (stereo not drawn) gave an AUC(0-t) of 674 ng·h/mL (CYP2C19; measured: 5-hydroxyomeprazole; human, plasma; oral, 20 mg omeprazole, day 14, cocktail with binimetinib and encorafenib).
For `C[C@H](N)C(=O)O`, the uptake half-time was 11.7 h (Bacillus subtilis; 168, S7 medium; 1 mM, equimolar amino acid mixture).
`COc1cc2ncnc(Nc3ccc(Oc4ccccc4)c(C)c3C)c2cc1OC.Cl` gave a viability fraction of 0.732 and 1.01 (LoVo (KRAS G13D); resazurin; 0.3 µM, 72 h, together with: trametinib 0 nM; baseline: DMSO).
With `NC(=O)CC[C@H](N)C(=O)O` the uptake half-time was 7.2 h (Bacillus subtilis; 168, S7 medium; 1 mM, equimolar amino acid mixture).
`COc1ccc2nc([S+]([O-])Cc3ncc(CO)c(OC)c3C)[nH]c2c1` (stereo not drawn) — result for “total AUClast decrease”: 37% (CYP2C19; human, plasma; oral, 20 mg omeprazole, Day 14, together with: encorafenib at steady state; baseline: Day -7).
For `Cn1cc(-c2ccc(-c3cncc(Cl)c3N3CCC4(CCNC4=O)CC3)cc2)cn1`, “fold change in expression” read -2.94 (COLO 205; microarray, measured: WWTR1; concentration not given, 6 h, gene set TAZ; baseline: untreated cells).
Under “maximum non-toxic concentration”, `COc1ccc(-c2nc(NS(=O)(=O)c3ccccc3)nc(N)c2-c2nc3ccccc3s2)cc1` is recorded as 100 µg/mL (BGM; cytotoxicity; 72 h).
`N[C@@H](CS)C(=O)O` has an uptake half-time of 13.6 h (Bacillus subtilis; 168, S7 medium; 1 mM, equimolar amino acid mixture).
`COc1c(N2C[C@@H]3CCCN[C@@H]3C2)c(F)cc2c(=O)c(C(=O)O)cn(C3CC3)c12` gave a QTc interval of 282 ± 0.3 ms (male Hartley guinea pig, anaesthetized; intravenous, 5 mg/kg, baseline before infusion).
The compound remaining of `NCCC(O)c1cccc(OC(=O)C2CCCCC2)c1.O=CO` (stereo not drawn) is reported as 44.4% (porcine liver esterase; 99 µM, 15 min; baseline: time 0 min).
`CC(C)C[C@H](N)C(=O)O` gave an uptake half-time of greater than 25 h (Bacillus subtilis; NCIB3610, MOPS medium; 1 mM, 1 mM equimolar amino acid mixture).
`Cc1ccc(S(=O)(=O)Nc2ncc(-c3nc4ccccc4s3)c(N)n2)cc1` — result for “maximum non-toxic concentration”: 110 µg/mL (BGM; cytotoxicity; 72 h).
